Published values gathered from unrelated publications.
Parts stem from different laboratories: compare values within a part only. Positions count from the first letter of the parent shown.

Sample 1
Target: RNA binding protein fox-1 homolog 2, RRM domain, GST-SBP tag (RBFOX2, Homo sapiens, UniProt O43251-10, residues 100-194)
Method: RNA Bind-n-Seq
Form: RNA
Sample: in vitro
Tested at: 365 nM
Setting: natural RNA segment, single round, ends assumed
Relative to: no-protein control
Direction: higher = stronger binding
Target sequence (chain): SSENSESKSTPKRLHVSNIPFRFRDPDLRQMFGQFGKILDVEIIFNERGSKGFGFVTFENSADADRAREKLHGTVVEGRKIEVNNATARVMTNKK
For `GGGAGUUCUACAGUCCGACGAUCGCUGUCUGUGGUGUGUGUGCCUUGUCUAGACAUGUGGCUUCCUCUGCUGUUGACCAGGUAGGCGCAAGUCUUACCAGUGUGGGUCGGGACCAACCUGUUUUCUUCCUCACUGGAAUUCUCGGGUGCCAA`, “RBNS enrichment (R)” read 1.03.
Under “RBNS enrichment (R)”, `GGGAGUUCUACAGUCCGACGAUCCACACUUUUCUCACAUUGAGUUGUAUGCAGAAUGUAGCUUCAGAUGUAUUCAUUAUAGUUACAAUAUCCAACUAAAAAGUACGCUAUCUAGAAGUAUACCGACCAAAAUCUGGAAUUCUCGGGUGCCAA` is recorded as 0.416.
`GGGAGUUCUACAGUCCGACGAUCGCGCGCUCUCUCUCUUUCUCUCUCUUUUCCUCUCUCUCCCUCUUUCUAGCCUGGGGCUUGAAUUUGCAUGUCUAAUUCAUUUACUCACCAUAUUUGAAUUGGCCUGAACAUGGAAUUCUCGGGUGCCAA`: “RBNS enrichment (R)” 3.47.
`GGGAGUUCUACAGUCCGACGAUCAUAACUAGACGUCUAUGUGAGAAAAUAUAUGUAUACAUAUAUAUGAUAUGCAGAAGUCACUUUUUUUAUCAGGCUUUAUUCUCCUUACAAAGCCACAGUUUAACUGUCUGUGGAAUUCUCGGGUGCCAA` — result for “RBNS enrichment (R)”: 0.406.
For `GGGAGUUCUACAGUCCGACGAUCAGAACCAGUGAGUGGUGAGAGCUCUGUCAGUGACAAACACUCCUUUGGCCUGUUGAAUUUGCUGAAGAACAUCACCUAAAGUCUGCACACGAGCCCAUUUUUACCAAGAUUGGAAUUCUCGGGUGCCAA`, “RBNS enrichment (R)” read 0.213.
`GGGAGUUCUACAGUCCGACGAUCGACUUCUCAUGACCAGAGGGCUCUGCACCAGCAUCCCCAAAGAGCCAAGAAGGCCACCAUGCUUUUACUGUCCAGACCAAAAUGUUGCUCUCAAUCCCCAACAUUUGAUAUGGAAUUCUCGGGUGCCAA` — result for “RBNS enrichment (R)”: 0.549.
For `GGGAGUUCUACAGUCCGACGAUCUAUAAAGGGCUUUUCUGAAAUUUAAACAGCUUGGUGAUGCAUCCUGAUAUUAUAAGCUUAAAACUAUCUUGAGGGGGAAAUGACUUCUUUUCUCCUUCUGUCCCUUUUCUUGGAAUUCUCGGGUGCCAA`, “RBNS enrichment (R)” read 0.712.
`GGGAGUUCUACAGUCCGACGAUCAUUAUGAAAAUUGUAUUAUAAUAUCUGGAAACACAACAUUUUCCUCUGGCAGGUGACUUUUGUACGAAAUGAAAAAAAAAAAACCUGUAUUUUUUUUGUUGUUCUUUUGUUGGAAUUCUCGGGUGCCAA`: “RBNS enrichment (R)” 1.15.

Sample 2
Target: Sal-like protein 4, full length isoform A (SALL4, Homo sapiens, UniProt Q9UJQ4, residues 1-1053)
UniProt Q9UJQ4, sequence (whole entry, looked up): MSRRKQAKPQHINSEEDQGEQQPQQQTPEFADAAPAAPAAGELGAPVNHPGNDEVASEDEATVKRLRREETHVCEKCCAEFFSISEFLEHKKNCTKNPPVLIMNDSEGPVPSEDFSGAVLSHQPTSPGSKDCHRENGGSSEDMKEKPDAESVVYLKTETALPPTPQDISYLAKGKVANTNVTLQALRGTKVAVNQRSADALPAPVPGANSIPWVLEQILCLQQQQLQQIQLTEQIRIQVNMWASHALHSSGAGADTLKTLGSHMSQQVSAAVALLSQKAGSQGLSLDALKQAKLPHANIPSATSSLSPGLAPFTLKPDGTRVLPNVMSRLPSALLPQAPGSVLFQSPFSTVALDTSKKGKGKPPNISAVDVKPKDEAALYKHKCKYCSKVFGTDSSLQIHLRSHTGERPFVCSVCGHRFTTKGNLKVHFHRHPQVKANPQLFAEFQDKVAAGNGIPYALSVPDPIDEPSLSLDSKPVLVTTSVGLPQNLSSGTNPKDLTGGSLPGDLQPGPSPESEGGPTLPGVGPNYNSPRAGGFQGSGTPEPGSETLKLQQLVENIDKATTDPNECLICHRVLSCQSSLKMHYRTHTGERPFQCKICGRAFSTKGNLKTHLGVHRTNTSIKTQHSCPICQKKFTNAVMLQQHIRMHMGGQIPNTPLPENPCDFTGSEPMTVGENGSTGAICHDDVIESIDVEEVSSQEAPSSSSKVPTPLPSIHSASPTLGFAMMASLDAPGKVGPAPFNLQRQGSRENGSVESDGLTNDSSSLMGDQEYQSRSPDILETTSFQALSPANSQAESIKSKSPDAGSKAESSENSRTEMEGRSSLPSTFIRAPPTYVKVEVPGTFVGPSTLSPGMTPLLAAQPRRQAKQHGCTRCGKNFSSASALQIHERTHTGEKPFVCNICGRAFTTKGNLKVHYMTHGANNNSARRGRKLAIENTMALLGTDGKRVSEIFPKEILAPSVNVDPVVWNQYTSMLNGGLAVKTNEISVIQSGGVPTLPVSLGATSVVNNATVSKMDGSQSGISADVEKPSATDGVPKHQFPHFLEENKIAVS
Method: universal PBM
Form: double-stranded DNA, one strand shown
Sample: in vitro
Tested at: 600 nM
Setting: 8-mer, flanks averaged, mean of replicates
Direction: higher = stronger binding
With `AATATTAG` the E-score was 0.426.
`AAAACGAG` has an E-score of 0.076.
`CCGTAGAG` gave an E-score of -0.206.
`AATGAAAA` has an E-score of 0.316.
For `AGTGGTCC`, the E-score was -0.219.
`TCCGGCGA` has an E-score of -0.168.
With `AATCATCT` the E-score was 0.158.
`ACCTTTAC` gave an E-score of 0.0173.
For `AGCCCACT`, the E-score was -0.17.
The E-score of `ATCGTCCG` is reported as -0.157.
With `AAAATTCT` the E-score was 0.215.
The E-score of `CTCGCGTC` is reported as -0.152.
The E-score of `CCTTCTGC` is reported as -0.173.
`GACATGCA` has an E-score of 0.0409.
With `AGGGGATC` the E-score was -0.103.
`CCATGGTA` gave an E-score of -0.0436.
`AGGACAAC` has an E-score of 0.0428.
With `GATGAGAC` the E-score was 0.03.
`ATGGGCGA` has an E-score of -0.229.
`CAGAGTAC` has an E-score of -0.0605.
`ATCCTGTA` gave an E-score of 0.196.
The E-score of `AAGCCAGT` is reported as -0.00613.

Sample 3
Target: CCNB3, cyclin fold, Cln2 fusion (human)
Method: yeast growth competition, sequencing
Sample: yeast
Setting: weak parent motif
Relative to: not given
Direction: higher = stronger binding
Starting sequence: CENPC docking peptide (human); VKTKKRLNFDDKV; partner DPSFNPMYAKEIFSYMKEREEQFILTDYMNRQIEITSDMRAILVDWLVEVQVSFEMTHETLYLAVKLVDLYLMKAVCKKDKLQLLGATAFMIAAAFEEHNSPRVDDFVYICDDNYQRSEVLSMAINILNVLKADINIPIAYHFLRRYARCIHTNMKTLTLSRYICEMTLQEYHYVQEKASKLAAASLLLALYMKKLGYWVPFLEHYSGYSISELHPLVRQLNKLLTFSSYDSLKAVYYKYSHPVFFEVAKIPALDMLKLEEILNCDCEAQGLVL
For `L7A`, “normalised enrichment score” read 0.21.
`F9L` — result for “normalised enrichment score”: 0.0752.
Under “normalised enrichment score”, `K5A` is recorded as 0.304.
`T3A` — result for “normalised enrichment score”: 1.01.
`N8A`: “normalised enrichment score” 0.691.
Under “normalised enrichment score”, `F9A` is recorded as 0.187.
Under “normalised enrichment score”, `K5A L7A` is recorded as 0.18.
For `K2A`, “normalised enrichment score” read 0.339.
For `K4A`, “normalised enrichment score” read 0.156.
`K5R` — result for “normalised enrichment score”: 1.12.

Sample 4
Target: Prothrombin, mature alpha-thrombin (F2, Homo sapiens, UniProt P00734)
Method: aptamer microarray, sandwich
Form: DNA with 2'F-ANA
Sample: in vitro
Tested at: 200 nM
Setting: whole 15-mer aptamer, many near background
With: Cy3 exosite-II aptamer, 400 nM
Direction: higher = stronger binding
Sequence: GGTTGGTGTGGTTGG
`2'F-ANA at 1 6 7 13`: “mean fluorescence intensity” 131 a.u.
Under “mean fluorescence intensity”, `2'F-ANA at 2 3 12 15` is recorded as 1150 a.u.
For `2'F-ANA at 2 3 6 7 10 11 13 15`, “mean fluorescence intensity” read 285 a.u.
`2'F-ANA at 1 7 13 15` — result for “mean fluorescence intensity”: 171 a.u.
`2'F-ANA at 2 9 14` — result for “mean fluorescence intensity”: 140 a.u.
For `2'F-ANA at 1 2 3 4 6 8 9 15`, “mean fluorescence intensity” read 165 a.u.
For `2'F-ANA at 1 2 3 4 5 6 8 10 13`, “mean fluorescence intensity” read 52.5 a.u.
`2'F-ANA at 1 3 4 5 7 8 9 11 12`: “mean fluorescence intensity” 125 a.u.
Under “mean fluorescence intensity”, `2'F-ANA at 1 2 4 5 8 11 12 13 15` is recorded as 66.4 a.u.
`2'F-ANA at 2 3 4 6 7 10 12 15`: “mean fluorescence intensity” 280 a.u.
`2'F-ANA at 1 3 4 6 7 9 10 13 14 15`: “mean fluorescence intensity” 75.4 a.u.
Under “mean fluorescence intensity”, `2'F-ANA at 1 4 5 8 9 10 12 14 15` is recorded as 55.9 a.u.
`2'F-ANA at 1 2 3 4 5 6 9 11 15`: “mean fluorescence intensity” 53 a.u.
Under “mean fluorescence intensity”, `2'F-ANA at 2 5 7 9 10 11 12 13` is recorded as 50.9 a.u.
Under “mean fluorescence intensity”, `2'F-ANA at 2 4 6 7 9 11 12` is recorded as 391 a.u.
`2'F-ANA at 1 4 7 9 10 12 13 14 15`: “mean fluorescence intensity” 46.8 a.u.
For `2'F-ANA at 1 4 5 6 7 11 12 15`, “mean fluorescence intensity” read 79 a.u.
For `2'F-ANA at 4 5 6 7 9 10`, “mean fluorescence intensity” read 46.6 a.u.
Under “mean fluorescence intensity”, `2'F-ANA at 4 5 8 10 11 13 15` is recorded as 45.9 a.u.
For `2'F-ANA at 3 4 5 6 7 9 11 12 15`, “mean fluorescence intensity” read 150 a.u.
Under “mean fluorescence intensity”, `2'F-ANA at 7 13` is recorded as 471 a.u.

Sample 5
Target: Interferon regulatory factor 3, full length, phosphomimetic (IRF3, Homo sapiens, UniProt Q14653, residues 1-427, S386D/S396D/S398D/S402D/T404D/S405D)
Method: protein-binding microarray
Form: double-stranded DNA, one strand shown
Sample: in vitro
Tested at: 2540 nM top
Setting: 60-bp whole probe
With: salmon DNA 0.4 mg/ml
Relative to: random background probes
Direction: higher = stronger binding
Constant ends, left off below: GCCTAGCAC … GTCTTGATTCGCTTGACGCTGCTG
Residues (chain): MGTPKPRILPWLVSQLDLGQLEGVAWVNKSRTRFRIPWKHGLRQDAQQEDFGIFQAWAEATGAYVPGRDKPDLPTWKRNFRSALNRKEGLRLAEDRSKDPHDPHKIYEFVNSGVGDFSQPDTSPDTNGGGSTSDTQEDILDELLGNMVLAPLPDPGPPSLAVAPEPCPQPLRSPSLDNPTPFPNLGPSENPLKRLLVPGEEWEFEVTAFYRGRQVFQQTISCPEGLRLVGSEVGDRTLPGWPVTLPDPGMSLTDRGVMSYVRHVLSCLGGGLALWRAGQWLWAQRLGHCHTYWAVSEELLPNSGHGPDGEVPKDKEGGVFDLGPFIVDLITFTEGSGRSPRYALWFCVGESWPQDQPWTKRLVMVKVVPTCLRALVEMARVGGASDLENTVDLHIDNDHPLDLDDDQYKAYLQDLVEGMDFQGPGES
`TCATCATTTTCTCTGTTACTGTGCTAG` — result for “fitted relative affinity”: 1.37 z-score.
`TTTTCATTGTTTTTCATCATGTGCTAG` — result for “fitted relative affinity”: 2.03 z-score.
For `GACGATATCAGTATCGACACGTGCTAG`, “fitted relative affinity” read 1.27 z-score.
Under “fitted relative affinity”, `CTGGACCCACTTCCAAATGGGTGCTAG` is recorded as 0.626 z-score.
`GACGATTTCGGTCTCGAGACGTGCTAG` — result for “fitted relative affinity”: 4.54 z-score.
Under “fitted relative affinity”, `GACGGTATCATTATCCTGACGTGCTAG` is recorded as 2.92 z-score.
`GACGGTATCCCTTTCCTGACGTGCTAG` — result for “fitted relative affinity”: 6.3 z-score.
`GACGGACTGGACTATCGGAACGTGCTA`: “fitted relative affinity” -0.018 z-score.
Under “fitted relative affinity”, `TTAGGTATTGACACTGGGTTAGTGCTA` is recorded as -0.828 z-score.
For `GCCGATCTCAGTATCGAGACGTGCTAG`, “fitted relative affinity” read 2.37 z-score.
Under “fitted relative affinity”, `TTAGGACTTGACTATCGGTTAGTGCTA` is recorded as -0.464 z-score.
For `GACGATATCAGTCTCTAGACGTGCTAG`, “fitted relative affinity” read 1.21 z-score.
`TTAGGGTCCGGTTTCGGTTAGTGCTAG`: “fitted relative affinity” 5.09 z-score.
Under “fitted relative affinity”, `TTTTTTTTCTACTTCTGTTTGTGCTAG` is recorded as 2.33 z-score.
For `TTAGGACTGGGTTTCAGTTAGTGCTAG`, “fitted relative affinity” read 0.467 z-score.
For `TTAGATATCCGTTTCGATTAGTGCTAG`, “fitted relative affinity” read 4.96 z-score.
For `TTAGGACTGGACACTGGGTCAGTGCTA`, “fitted relative affinity” read -0.917 z-score.
For `TCACCTTTGTTTTTTTCACTGTGCTAG`, “fitted relative affinity” read 1.07 z-score.
